# Results collected from several papers.
# Numbered parts are unrelated; each lists some results of a single study. Substitutions count along the parent as printed.

# Set 1
# Target: Histone acetyltransferase KAT6A, winged helix 2, GST fusion (KAT6A, Homo sapiens, UniProt Q92794, residues 85-181)
# Technique: protein binding microarray
# Form: double-stranded DNA, one strand shown
# Medium: in vitro
# Concentration: not given
# Setting: 8-mer, flanks averaged, mean of 2 arrays, mostly near background
# Reference: not given
# Direction: higher = stronger binding
# Target sequence (chain): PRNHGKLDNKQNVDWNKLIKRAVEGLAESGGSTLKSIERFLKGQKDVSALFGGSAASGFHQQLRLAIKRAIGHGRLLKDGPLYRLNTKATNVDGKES
Oligonucleotide,E-score
CGGATTGA,0.0725
ATAATTTC,0.064
AACGGGAG,0.0682
GACCTACA,-0.0982
AAACCTTC,-0.0307
GCATTAAA,0.038
AGACGTGA,-0.154
AGATTCCG,0.0907

# Set 2
# Target: ABI1, truncated, D143A, DHFR fusion (Arabidopsis thaliana)
# Technique: DHFR PCA, deep sequencing
# Medium: yeast
# Setting: methotrexate growth selection, single substitutions
# With: (+)-ABA 0.0091 µM
# Reference: wild-type fitted maximum
# Direction: higher = stronger binding
# Starting sequence: PYL1, truncated, DHFR fusion (Arabidopsis thaliana); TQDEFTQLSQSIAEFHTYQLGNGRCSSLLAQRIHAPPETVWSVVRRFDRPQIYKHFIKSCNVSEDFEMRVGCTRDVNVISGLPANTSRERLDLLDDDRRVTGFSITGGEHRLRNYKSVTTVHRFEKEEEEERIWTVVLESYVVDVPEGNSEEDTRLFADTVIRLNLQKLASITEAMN
Change,relative binding score [%]
R88E,1.48
I133Y,16.6
W134V,18.6
P36L,5.89
S27D,-0.51
D92W,-5.11
R132N,34.7
K126V,45.7

# Set 3
# Target: Sox, HMG box (Pigoraptor chileana)
# Technique: Spec-seq
# Form: double-stranded DNA, one strand shown
# Medium: in vitro
# Concentration: not given
# Setting: whole probe, mean of replicates
# Reference: not given
# Direction: lower = stronger binding
# All sequences stand within: GAGTCGTCTCGTCAGCAC … CCGTAGAGCACTCAGGTC
# Target sequence (chain): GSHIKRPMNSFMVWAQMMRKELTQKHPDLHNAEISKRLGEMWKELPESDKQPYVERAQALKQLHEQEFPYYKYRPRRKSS
Oligonucleotide,relative binding energy
CATCCCG,0.799 ln ratio
CATACAA,-0.586 ln ratio
ACATGTT,-0.748 ln ratio
TTATGTT,-1.51 ln ratio
CATCACA,-0.0412 ln ratio
ACCGGTT,0.322 ln ratio
CATATGC,0.189 ln ratio
GACGGTT,1.09 ln ratio

# Further values, each from its own experiment
# Starting sequence: viral docking peptide; KGVKRKLFAEDSS
Change,target,test,system,setting,how to read,quantity,value
KGVKRKLFAEDKS [S12K],"CCNA2, cyclin fold, Cln2 fusion (human)","yeast growth competition, sequencing",yeast,strong parent motif,"reference: not given, higher = stronger binding",normalised enrichment score,6.14

# A few entries again (set 1):
Oligonucleotide,E-score
CGGATTGA,0.0725
ATAATTTC,0.064
